Assay results pooled from the literature.
Lines come from different studies, so protocols differ. “And” joins repeats or separate records; there may be more than shown. Numbers after ± are the reported error.

`CO[C@@H]1[C@H](O)[C@@H](CO)O[C@H]1n1c([N+](=O)[O-])nc2c(=O)[nH]c(N)nc21` — result for “nucleoside remaining fraction”: 0.574 (depurination, RP-HPLC; citrate-phosphate buffer 0.5 mM; 1260 min, pH 5, 37 °C).
With `NC(=O)CCNC(=O)c1ccc(C2CCCCC2)cc1` the hepatic clearance was 2.82 L/h/kg (hepatocyte stability; cryopreserved rat hepatocytes; 1 µM).
For `O=C(Nc1ccc(-c2nc(-c3ccc(Cl)cc3)no2)cc1)[C@@H]1CC(=O)N(C[C@@H]2CCCNC2)C1`, “time in open field centre” read “no effect” (Wistar rat male and female; ip, 20 mg/kg).
`O=C(Nc1nc2cccc(-c3ccc(CN4CCS(=O)(=O)CC4)cc3)n2n1)C1CC1`: “patients with adverse event” 0% (measured: anaemia; rheumatoid arthritis patients; oral, 30 mg once daily, 4 weeks, any relatedness).
The concentration of `O=C(N[C@H](Cc1c[nH]c2ccccc12)C(=O)Nc1ccncc1)c1ccc(-c2ccc(F)c(Cl)c2)cc1F` is reported as 42.8 µM (Swiss Webster mouse, female, liver; oral, 50 mg/kg, 2 h, 20% Kolliphor vehicle).
`CCO[C@H]1CCN(Cc2c(OC)cc(C)c3[nH]ccc23)[C@H](c2ccc(C(=O)O)cc2)C1` gave an unbound AUClast of 5.05 µg·h/mL (human moderate hepatic impairment, plasma; oral, 200 mg single dose, median).
For `CCCCC[C@H](O)CC[C@@H]1[C@H]2Cc3cccc(OCC(=O)O)c3C[C@H]2C[C@H]1O`, “geometric mean AUC(0-inf)” read 0.00096 µg·h/mL (LC-MS/MS; Japanese IPAH/HPAH patients, plasma; inhaled, 54 µg).
With `CSCC[C@H](NC(=O)CN)C(=O)N[C@@H](CCCNC(=N)N)C(=O)N[C@@H](Cc1c[nH]c2ccccc12)C(=O)N[C@@H](CO)C(=O)N[C@@H](CCCNC(=N)N)C(=O)N[C@@H](CCCCN)C(=O)N[C@@H](CCSC)C(=O)N1CCC[C@H]1C(=O)N[C@@H](CS)C(=O)N[C@H](C(=O)N[C@@H](CO)C(N)=O)C(C)C` the remaining activity was 30 ± 3% (12G5 competition, SUP-T1 cells; human plasma; concentration not given, 8 h).
`CN1CCN(C(=O)c2ccc(C3CCCCC3)cc2)CC1=O` has a hepatic clearance of 0.474 L/h/kg (hepatocyte stability; cryopreserved human hepatocytes; 1 µM).
`Nc1ncc(-c2ccncc2)nc1Nc1ccc2[nH]ccc2c1` has an initial half-life of 0.22 h (C57BL mice, male, plasma; intravenous, 5 mg/kg).
With `COc1ncc(-c2nc3c(n2C(C)C)[C@H](c2ccc(Cl)cc2)N(c2cc(Cl)cn(C)c2=O)C3=O)c(OC)n1` the median Tmax was 2.1 h (human patients, plasma; oral, 25 mg, high-dose arm, cycle 1 day 1).
With `CN1CCC(c2ccc(-c3ccc(C4CCCCC4)cc3)cn2)CC1` the hepatic clearance was 3.84 L/h/kg (liver microsome stability; mouse liver microsomes; 1 µM).
`O=C(CCC(C(=O)[O-])N1CCN(C(CCC(=O)NCC(O)CO)C(=O)[O-])Cc2cccc(n2)CN(C(CCC(=O)NCC(O)CO)C(=O)[O-])CC1)NCC(O)CO.[Gd+3]` (stereo not shown) gave a Gd concentration of 2.2 nmol/g (ICP-MS; rat, femur epiphysis; intravenous, 0.6 mmol Gd/kg, 1 week).
`O=C(O)c1cc(=O)[nH]c(=O)[nH]1`: “serum protein binding” < 6% (ultrafiltration; normal rat serum; 37 °C).
Under “treatment-related adverse events”, `FC(F)(F)c1ccc(CNc2ccc(Cc3c[nH]c4ncc(Cl)cc34)cn2)cn1` is recorded as 0% (measured: Headache; patients with advanced solid tumours, non-TGCT cohort; oral, 1000 mg/day, grade 3 or higher).
For `O=C(NCC1CCOCC1)c1ccc(C2CCCCC2)cc1`, the hepatic clearance was 4.56 L/h/kg (hepatocyte stability; cryopreserved mouse hepatocytes; 1 µM).
The RDW-CV of `CCC(=O)N(CCC(c1ccc2c(c1)OCO2)c1ccccc1OC)Cc1ccccc1` (stereo not shown) is reported as 24.5% (female athymic nude mouse, blood; i.p., 60 mg/kg twice daily, 14 days, group mean).
With `CC[C@H](C)CCCCC(=O)N[C@@H](CCN)C(=O)N[C@H](C(=O)N[C@@H](CCN)C(=O)N[C@H]1CCNC(=O)[C@H]([C@@H](C)O)NC(=O)[C@H](CCN)NC(=O)[C@H](CCN)NC(=O)[C@H](CC(C)C)NC(=O)[C@@H](Cc2ccccc2)NC(=O)[C@H](CCN)NC1=O)[C@@H](C)O` the half-life prolongation was 10 h (long-term haemodialysis patients, plasma; IV, 0.75 mg/kg; reference: healthy subjects).
With `Cn1cc(-c2cn3nccc3c(-c3cnn([C@]4(CC#N)C[C@@H](C#N)C4)c3)n2)cn1` the Vz/F was 759 L (healthy human, plasma; 400 mg once daily, day 10, multiple dose, fed, geometric mean).
For `C=CC(=O)N(C)CCOc1c(N)ncnc1-c1cc(F)cc(NC(=O)c2ccc(C3CC3)cc2F)c1C`, the AUC was 0.116 µg·h/mL (human, whole blood; oral, 50 mg once daily, day 1).
For `O=C(CC1CCOCC1)Nc1ccc(C2CCCCC2)cc1`, the hepatic clearance was 0.234 L/h/kg (human liver microsomes; 1 µM, without NADPH).
For `C[Si](C)(C)O[Si](C)(C)O[Si](C)(C)O[Si](C)(C)C`, “hepatic biotransformation rate constant” read 0.046 h⁻¹ and 0.071 h⁻¹ and 0.058 h⁻¹ (IVIVE from S9; rainbow trout (Oncorhynchus mykiss)).
`C=CCN1CC(=O)N2[C@@H](Cc3ccc(O)cc3F)C(=O)N(Cc3cccc(N4CC(N5CCN(CC)CC5)C4)n3)C[C@@H]2N1C(=O)NCc1ccccc1` — result for “treatment-related AST increased”: 0% (advanced solid tumour patients; oral, 100 mg twice daily, grade ≥3, dose-escalation).
`C[C@H]1C=C(Cc2ccccc2)C(=O)O1` gave a KFoc of 68 mL/g (soil adsorption; tested soils; geometric mean).
`C=CC(=O)Nc1cc(Nc2nccc(-c3cn(C4CC4)c4ccccc34)n2)c(OC)cc1N(C)CCN(C)C` gave a relative error of -3.2% (freeze-thaw stability; rat plasma; 1 ng/mL, three freeze-thaw cycles; reference: nominal concentration).
`CNCc1ccc(-c2[nH]c3cc(F)cc4c3c2CCNC4=O)cc1`: “patients with adverse event” 0% (measured: headache; human patients; oral, 600 mg twice daily, grade 2).
`C=CC(=O)NC1CCN(c2ncc3ncnc(Nc4ccc(Oc5ccc6c(c5)ncn6C)c(C)c4)c3n2)CC1` — result for “dose excreted unchanged”: 31.6% (healthy male volunteers, urine and faeces; oral, 60 mg, 14C-labelled).
For `CN1C(=O)[C@@H](NC(=O)c2nnc(Cc3ccccc3)[nH]2)COc2cccnc21`, “TEAE leading to permanent discontinuation” read 0% (phase I multiple ascending dose; human, male and female; oral, 600 mg, 14 days).
For `O=C(COc1ccc(Cl)cc1)NC12CC(c3nnc([C@H]4C[C@@H](OC(F)(F)F)C4)o3)(C1)C2`, “adverse event incidence” read 10.5% (measured: Hypogeusia; human; 28 (unit not given)).
With `CCc1cc(C(=O)NC)c2nccc(N3CCc4c(cc(Cn5ccnc5)cc4-c4cn(C)nc4C(F)(F)F)C3=O)c2c1` the AUC extrapolated was 0.1% (CD-1 mouse, male, plasma; intravenous, 3 mg/kg).
`N#Cc1ccc2c(c1)[C@H]1CCCN(C(=O)c3ccc4[nH]cnc4c3)[C@H]1C2` — result for “total testosterone level”: 14.5 nmol/L (human males; 160 mg, day 15).
For `CCCOc1ccc(NC(=O)CN2CCN(C)CC2)cc1-c1nc(CC)c(CC)c(=O)[nH]1`, “maximal pulse rate increase difference” read 2.84 bpm (least-squares mean difference; healthy Chinese men; 10 mg, with: alcohol 0.5 g/kg; reference: compound plus placebo).
For `C[C@@H](Nc1cc(F)cc(F)c1)c1cc(C(=O)N(C)C)cc2c(=O)cc(N3CCOCC3)oc12`, “dose reduction due to AE” read 0% (advanced solid tumour patients; oral, 60 mg twice daily, continuous monotherapy).
For `NC(=O)N1c2ccccc2CC(O)c2ccccc21` (stereo not shown), “volume of distribution” read 20 L (population PK modelling; human patients, plasma; dose not given, weight-scaled, no back-conversion).
The Cmax of `COc1ccc2[nH]c([S+]([O-])Cc3ncc(C)c(OC)c3C)nc2c1` (stereo not shown) is reported as 0.454 ± 0.53 µg/mL (healthy Chinese volunteers, plasma; oral, 20 mg, enteric-coated tablets, all CYP2C19 genotypes).
The remaining peptide of `CC(C)C[C@@H]1NC(=O)[C@H](CCCCN)NC(=O)[C@H](CC(N)=O)NC(=O)[C@H](CCCNC(=N)N)NC(=O)[C@H]([C@@H](C)O)NC(=O)[C@@H]2CSSC[C@@H]3NC(=O)[C@H]([C@@H](C)O)NC(=O)CNC(=O)CNC(=O)[C@H](C(C)C)NC(=O)[C@@H]4CSSC[C@H](NC(=O)[C@H](CCCCN)NC(=O)[C@H](CSSC[C@H](NC(=O)[C@H](C(C)C)NC(=O)[C@@H]5CCCN5C1=O)C(=O)NCC(=O)N[C@@H](CCC(=O)O)C(=O)N[C@@H]([C@@H](C)O)C(=O)N4)NC(=O)CNC(=O)[C@@H]1CCCN1C(=O)[C@H]([C@@H](C)O)NC(=O)[C@H](CC(N)=O)NC3=O)C(=O)N[C@@H](CO)C(=O)N[C@@H](Cc1c[nH]c3ccccc13)C(=O)N1CCC[C@H]1C(=O)N[C@@H](C(C)C)C(=O)N2` is reported as 98.2 ± 2.6% (HPLC; ammonium bicarbonate 0.1 M; 180 µM, 14 days, pH 9.0, 37 °C, deamidation stability).
Under “unchanged fraction of radioactivity”, `O=C(O)CCCOc1ccc([18F])cc1-c1cc(-c2ccccc2C(F)(F)F)n(-c2ccccc2)n1` is recorded as 94.1 ± 3% (radio-TLC; ddY mice male, heart; intravenous, 37 MBq, 15 min).
For `O=C(c1ccc(F)cc1)C1CCN(CCn2c(=O)[nH]c3ccccc3c2=O)CC1`, the intrinsic clearance was 2.72 L/h/kg (human liver microsomes).
Under “share of subjects with TEAE”, `CC(C)(C(=O)N1CCOc2c(C#N)cncc2C1)C(F)F` is recorded as 16.7% (measured: musculoskeletal disorders; healthy humans, both sexes; oral, 40 mg single dose).
For `Cc1cc(-c2nccc3c2ccn3CC(=O)Nc2ccc(-c3cnccn3)cn2)ccn1`, “subjects with Nausea TEAEs” read 0% (human; SAD part, single 20 mg dose).
`CCN1/C(=C/C(C)=O)Sc2ccc(F)cc21` has a heart rate of 114 ± 21 beats/min (cynomolgus monkey; oral, 100 mg/kg, 2 h post-dose).
`Cl.[2H]C([2H])([2H])CC(=O)c1cnc(NC(=O)C2CC2)cc1Nc1cccc(-c2ncn(C([2H])([2H])[2H])n2)c1OC` gave an AUC(0-tau) of 0.793 µg·h/mL (geometric mean; human; oral, 20 mg twice daily, day 1, fasted, tablet, multiple dose).
For `CCOc1c([C@H](C)n2nc(C)c3c(N)ncnc32)cc(Cl)c(F)c1[C@@H]1CNC(=O)C1`, “observations QTcF >450 ≤480 ms” read 0% (ECG; previously treated B-cell malignancy patients; oral, 45 mg once daily, baseline QTcF ≤450 ms).
For `CCCCC1=NC2(CCCC2)C(=O)N1Cc1ccc(-c2ccccc2S(=O)(=O)Nc2noc(C)c2C)c(COCC)c1`, the Cmax was 3.01 µg/mL (healthy adult volunteers, plasma; oral, 100 mg, 14 days repeated dosing, fasted, crushed tablet).
`CN(C)CCC(=O)Nc1ccc(C2CCCCC2)cc1` has a hepatic clearance of 4.74 L/h/kg (liver microsome stability; mouse liver microsomes; 1 µM).
`N#Cc1ccc(Nc2nc(N)cc(Oc3c(F)cc(-c4ccc(C#N)cc4)cc3F)n2)cc1` gave a remaining compound of 94% (human plasma, diluted in PBS; 1.00 µM, 1.00 h, 37 °C).

Some of these lines once more:
For `CN1C(=O)[C@@H](NC(=O)c2nnc(Cc3ccccc3)[nH]2)COc2cccnc21`, “TEAE leading to permanent discontinuation” read 0% (phase I multiple ascending dose; human, male and female; oral, 600 mg, 14 days).
`CCN1/C(=C/C(C)=O)Sc2ccc(F)cc21` has a heart rate of 114 ± 21 beats/min (cynomolgus monkey; oral, 100 mg/kg, 2 h post-dose).
`C=CC(=O)Nc1cc(Nc2nccc(-c3cn(C4CC4)c4ccccc34)n2)c(OC)cc1N(C)CCN(C)C` gave a relative error of -3.2% (freeze-thaw stability; rat plasma; 1 ng/mL, three freeze-thaw cycles; reference: nominal concentration).
For `O=C(c1ccc(F)cc1)C1CCN(CCn2c(=O)[nH]c3ccccc3c2=O)CC1`, the intrinsic clearance was 2.72 L/h/kg (human liver microsomes).
